Results gathered from unrelated publications.
Lines come from different studies, so protocols differ. Values joined by “and” are separate records of one study, mostly repeats; a detail may differ. ± gives the spread as reported.

SMILES	target	assay	system	conditions	how to read	measurement	result
O=C(Nc1cnccc1Cl)N1CCN(Cc2ccc3c(c2)OC(F)(F)O3)CC1	CCR1 (Homo sapiens, UniProt P32246)	radioligand binding, inhibitor		concentration not given		inhibition	-14% and -18%
Oc1ccc(/C=C/c2cc(O)cc(O)c2)cc1	O-methyltransferase (Sorghum bicolor, UniProt A0A1B6PFV1, W279A)	isothermal titration calorimetry		with: SFG		∆H	-6.61 ± 0.265 kcal/mol
[3H]C1(O)C=C(C(=O)O)CC1 (centres unmarked)	Calcium/calmodulin-dependent protein kinase type II subunit alpha (Rattus norvegicus, UniProt P11275)	radioligand, saturation binding	rat cortical homogenate			Bmax	43 pmol/mg protein
[2H]c1c([2H])c([C@]2([2H])CCCN2C(=O)C(C)(C)Oc2ccc3cn[nH]c3c2)c([2H])c([2H])c1C([2H])([2H])[2H]	MAP2K7 (Homo sapiens, UniProt O14733)	KINOMEscan		1 µM	relative to: DMSO control	remaining binding	95%
COc1ccc(N2C(=O)N(c3c(C)cccc3Cl)Cc3cnc(Nc4ccc(C5CCN(C)CC5)cc4OC)nc32)nc1	Myosin-IIIa (MYO3A, Homo sapiens, UniProt Q8NEV4)	kinase activity		0.5 µM		inhibition	28%
Nc1ncc(-c2nc(N3CCOCC3)nc(N3CCOCC3)n2)c(C(F)F)n1	MAP3K15 (Homo sapiens, UniProt Q6ZN16)	KINOMEscan		10 µM		remaining binding	61%
COc1cc(Nc2ncc(F)c(Nc3ccc4c(n3)NC(=O)C(C)(C)O4)n2)cc(OC)c1OC	DSTYK (Homo sapiens, UniProt Q6XUX3)	binding, KINOMEscan		10 µM, RIPK5 kinase		inhibition	100%
C[C@H]1CN(c2n[nH]c3nc(N[C@H]4CC[C@H](NS(=O)(=O)CCC(F)(F)F)CC4)ncc23)CCO1	PRKAR2B (Homo sapiens, UniProt P31323)	inhibitor, Kinobeads competition profiling		0.032 µM	relative to: vehicle	relative abundance	1.01
NC(=O)c1csc(C(=O)CCl)c1	UCHL1 (Homo sapiens, UniProt P09936)	covalent, intact protein LC-MS		12.5 µM		labelling	23.7%
O=C(c1ccc(Cl)cc1)N1CCN2C(=O)N(OC(=O)N3CCOc4ccccc43)C(=O)C2C1 (centres unmarked)	Serine hydrolase RBBP9 (Homo sapiens, UniProt O75884)	MS-based ABPP	SW-620 conditioned medium	10 µM, 1 h, 37 °C, median protein ratio	relative to: compound over DMSO	probe labelling ratio	1.48
O=C(Nc1cccnn1)N1CCC(=Cc2cccc(Oc3ccc(C(F)(F)F)cn3)c2)CC1	OPRK1 (Homo sapiens, UniProt P41145)	radioligand binding, inhibitor		10 µM, human, with: [3H]diprenorphine		inhibition	47%
CN1CCN(c2cc(-c3ccncc3)c(-c3ccc4ccccc4c3)nn2)CC1	MCHR1 (Homo sapiens, UniProt Q99705)	agonist, FLIPR		12.5 µM		activation	4.6%
COc1cccc(CO)c1	ADORA2A (Homo sapiens, UniProt P29274)	binding, radioligand competition		10 µM, with: [3H]ZM241385		displacement	8 ± 2%
CC(C)[C@@H](O)CC[C@@H](C)[C@H]1CC[C@H]2[C@@H]3CC=C4C[C@@H](O)CC[C@]4(C)[C@H]3CC[C@]12C	Glutamate NMDA receptor; GRIN1/GRIN2B (GRIN1/GRIN2B, Homo sapiens, UniProt Q05586+Q13224, V564A)	positive allosteric modulator, two-electrode voltage clamp	Xenopus oocytes expressing GluN2B-V564A	10 µM, 0.02% cremophor, with: 100 µM glutamate and glycine	relative to: without compound	current response	238 ± 11%
CC[N+]1(CC)CCN(c2ccc(C#N)cc2)CC1	Nicotinic acetylcholine receptor alpha1/beta1/epsilon/delta (Mus musculus, UniProt P02716+P04756+P09690+P20782)	ion current, inhibitor, two-electrode voltage clamp	Xenopus oocytes	30 µM, after co-application, unit not given, with: ACh 30 µM	relative to: ACh alone	ACh response	0.483 ± 0.217
CC[C@@H](C)[C@@H](NC(=O)[C@@H](Cc1ccc(O)cc1)NC(=O)[C@H]1CCCN1C(=O)[C@@H](CCCNC(=N)N)NC(=O)[C@H](N)Cc1c[nH]cn1)C(=O)N[C@H](C)C(=O)N[C@H](Cc1c[nH]cn1)C(=O)N[C@H](CCCNC(=N)N)C(=O)N[C@H](CCCCNC(=O)c1cccc(S(=O)(=O)F)c1)C(=O)N[C@H](Cc1ccc(O)cc1)C(=O)N[C@H](CO)C(=O)N[C@H](Cc1ccccc1)C(N)=O	Programmed cell death 1 ligand 1, with PD-1 (Cd274, Mus musculus, UniProt Q9EP73)	PD-1-Fc binding	HEK293T-mPD-L1	concentration not given, 48 h		PD-L1 blocking rate	19.2% and 20.5% and 19.8%
O=C(O)C(F)(F)C(F)(F)C(F)(F)F	Albumin (ALB, Homo sapiens, UniProt P02768)	ITC		25 °C, first binding site, with: HSA 20 µM		association constant	31000 M⁻¹

For quick reference, copied from above:
SMILES	target	assay	system	conditions	how to read	measurement	result
COc1cc(Nc2ncc(F)c(Nc3ccc4c(n3)NC(=O)C(C)(C)O4)n2)cc(OC)c1OC	DSTYK (Homo sapiens, UniProt Q6XUX3)	binding, KINOMEscan		10 µM, RIPK5 kinase		inhibition	100%
C[C@H]1CN(c2n[nH]c3nc(N[C@H]4CC[C@H](NS(=O)(=O)CCC(F)(F)F)CC4)ncc23)CCO1	PRKAR2B (Homo sapiens, UniProt P31323)	inhibitor, Kinobeads competition profiling		0.032 µM	relative to: vehicle	relative abundance	1.01
